Experimental data gathered from unrelated publications.
Lines come from different studies, so protocols differ. Numbers after ± are the reported error.

| Compound | host | matrix | route | dose | time | tissue uptake |
| --- | --- | --- | --- | --- | --- | --- |
| CC(C)C[C@H](NC(=O)[C@@H](CCCCNC(=O)CCCCCNC(=O)CN1CCN(CC(=O)O)CCN(CC(=O)O)CCN(CC(=O)O)CC1)NC(=O)[C@H](Cc1ccc(O)cc1)NC(=O)[C@H](CO)NC(=O)[C@H](Cc1c[nH]c2ccccc12)NC(=O)[C@H](Cc1cnc[nH]1)NC(=O)[C@@H]1CCC(=O)N1)C(=O)N[C@@H](CCCNC(=N)N)C(=O)N1CCC[C@H]1C(=O)NCC(N)=O [indium-111 labelled] | female athymic nude mouse | kidneys | intravenous | 0.037 MBq | 24 h | 4.43 ± 1.67 %ID/g |
| N=C(N)NCCC[C@@H]1NC(=O)[C@H](CCCCNC(=O)CNC(=O)CNC(=O)CNC(=O)CC[C@H](NC(=O)CNC(=O)CNC(=O)CNC(=O)CC[C@H](NC(=O)CN2CCN(CC(=O)O)CCN(CC(=O)O)CCN(CC(=O)O)CC2)C(=O)NCC(=O)NCC(=O)NCC(=O)N[C@@H](CCC(=O)NCC(=O)NCC(=O)NCC(=O)NCCCC[C@@H]2NC(=O)[C@@H](Cc3ccccc3)NC(=O)[C@H](CC(=O)O)NC(=O)CNC(=O)[C@H](CCCNC(=N)N)NC2=O)C(=O)NCC(=O)NCC(=O)NCC(=O)NCCCC[C@@H]2NC(=O)[C@@H](Cc3ccccc3)NC(=O)[C@H](CC(=O)O)NC(=O)CNC(=O)[C@H](CCCNC(=N)N)NC2=O)C(=O)NCC(=O)NCC(=O)NCC(=O)NCCCC[C@@H]2NC(=O)[C@@H](Cc3ccccc3)NC(=O)[C@H](CC(=O)O)NC(=O)CNC(=O)[C@H](CCCNC(=N)N)NC2=O)NC(=O)[C@@H](Cc2ccccc2)NC(=O)[C@H](CC(=O)O)NC(=O)CNC1=O [indium-111 labelled] | female athymic nu/nu mice | kidney | intravenous | – | 0.5 h | 8.35 ± 0.52 %ID/g |
| CCCC[C@H](NC(=O)CCCCCCCNC(=O)CN1CCN(CC(=O)O)CCN(CC(=O)O)CC1)C(=O)N[C@H]1CC(=O)NCCCC[C@@H](C(N)=O)NC(=O)[C@H](Cc2c[nH]c3ccccc23)NC(=O)[C@H](CCCNC(=N)N)NC(=O)[C@@H](Cc2ccccc2)NC(=O)[C@H](Cc2c[nH]cn2)NC1=O [copper-64 labelled] | C57 mice | pancreas | intravenous | 0.37 MBq | 2 h | 0.2 ± 0.18 %ID/g |
| N=C(N)NCCC[C@@H]1NC(=O)[C@H](CCCCNC(=O)CNC(=O)CNC(=O)CNC(=O)CC[C@H](NC(=O)CNC(=O)CNC(=O)CNC(=O)CN2CCN(CC(=O)O)CCN(CC(=O)O)CCN(CC(=O)O)CC2)C(=O)NCC(=O)NCC(=O)NCC(=O)NCCCC[C@@H]2NC(=O)[C@@H](Cc3ccccc3)NC(=O)[C@H](CC(=O)O)NC(=O)CNC(=O)[C@H](CCCNC(=N)N)NC2=O)NC(=O)[C@@H](Cc2ccccc2)NC(=O)[C@H](CC(=O)O)NC(=O)CNC1=O [indium-111 labelled] | female athymic nu/nu mice | spleen | intravenous | 111 kBq | 24 h | 0.91 ± 0.1 %ID/g |
| CC(C)C[C@H](NC(=O)[C@H](Cc1ccc(O)cc1)NC(=O)[C@@H](CCCNC(=N)N)NC(=O)[C@@H](CO)NC(=O)[C@H](Cc1ccccc1)NC(=O)[C@H](CC1CCCCC1)NC(=O)[C@H](CC(=O)O)NC(=O)CN1CCCN2CCN(CCCN(CC(=O)O)CC2)CC1)C(=O)N[C@@H](Cc1c[nH]c2ccccc12)C(=O)N[C@@H](CO)C(=O)O [copper-64 labelled] | female NMRI nude mice | heart | – | – | 22 h p.i. | 1 ± 0.2 %ID/g |
| CCCC[C@H](NC(=O)CNC(=O)CNC(=O)CN1CCN(CC(=O)O)CCN(CC(=O)O)CC1)C(=O)N[C@H]1CC(=O)NCCCC[C@@H](C(N)=O)NC(=O)[C@H](Cc2c[nH]c3ccccc23)NC(=O)[C@H](CCCNC(=N)N)NC(=O)[C@@H](Cc2ccccc2)NC(=O)[C@H](Cc2c[nH]cn2)NC1=O [technetium-99m labelled] | C57 mouse | pancreas | iv | 0.037 MBq | 0.5 h | 0.29 ± 0.1 %ID/g |
| N=C(N)NCCC[C@@H]1NC(=O)[C@H](CCCCNC(=O)CC[C@H](NC(=O)CC[C@H](NC(=O)CN2CCN(CC(=O)O)CCN(CC(=O)O)CCN(CC(=O)O)CC2)C(=O)N[C@@H](CCC(=O)NCCCC[C@@H]2NC(=O)[C@@H](Cc3ccccc3)NC(=O)[C@H](CC(=O)O)NC(=O)CNC(=O)[C@H](CCCNC(=N)N)NC2=O)C(=O)NCCCC[C@@H]2NC(=O)[C@@H](Cc3ccccc3)NC(=O)[C@H](CC(=O)O)NC(=O)CNC(=O)[C@H](CCCNC(=N)N)NC2=O)C(=O)NCCCC[C@@H]2NC(=O)[C@@H](Cc3ccccc3)NC(=O)[C@H](CC(=O)O)NC(=O)CNC(=O)[C@H](CCCNC(=N)N)NC2=O)NC(=O)[C@@H](Cc2ccccc2)NC(=O)[C@H](CC(=O)O)NC(=O)CNC1=O [indium-111 labelled] | female athymic nu/nu mice | liver | intravenous | – | 0.5 h | 2.98 ± 0.51 %ID/g |
| CCCC[C@H](NC(=O)COCCOCCNC(=O)CN1CCN(CC(=O)O)CCN(CC(=O)O)CC1)C(=O)N[C@H]1CC(=O)NCCCC[C@@H](C(N)=O)NC(=O)[C@H](Cc2c[nH]c3ccccc23)NC(=O)[C@H](CCCNC(=N)N)NC(=O)[C@@H](Cc2ccccc2)NC(=O)[C@H](Cc2c[nH]cn2)NC1=O [copper-64 labelled] | C57 mice | kidney | intravenous | 0.37 MBq | 24 h | 1.47 ± 0.56 %ID/g |
| CCCC[C@H](NC(=O)CNC(=O)CNC(=O)CN1CCN(CC(=O)O)CCN(CC(=O)O)CCN(CC(=O)O)CC1)C(=O)N[C@H]1CC(=O)NCCCC[C@@H](C(N)=O)NC(=O)[C@H](Cc2c[nH]c3ccccc23)NC(=O)[C@H](CCCNC(=N)N)NC(=O)[C@@H](Cc2ccccc2)NC(=O)[C@H](Cc2c[nH]cn2)NC1=O [lutetium-177 labelled] | C57 mouse, female | skin | intravenous | 0.037 MBq | 4 h | 0.5 ± 0.09 %ID/g |
